Published values from different studies.
Numbered parts are unrelated; each lists some results of a single study. Changes are numbered by the printed parent chain.

Sample 1
Target: Fragile X messenger ribonucleoprotein 1, C-terminal low-complexity region (Fmr1, Mus musculus, UniProt P35922)
Technique: RNA Bind-n-Seq
Form: RNA
Medium: in vitro
Tested at: 200 nM
Notes: whole 134-nt RNA, ends assumed
With: 150 mM KCl
Reference: input library
Reading: higher = stronger binding
Shared flanks, not repeated: GGGAGUUCUACAGUCCGACGAUC … UGGAAUUCUCGGGUGUCAAGG
Oligonucleotide	log2 enrichment
UGGCCCUGGUGGCAUGCGGGGAGGAAGAGGUGGCCUCAUGGAUUGUGGUGGUCCCGGUGGAAUGUUCAGAGGUGGCCGUGGUGGAGACAG	0.483
GUCCUGUGCUACACAUCGUAUGUACCGAAUCGGGGUUUUUGGGGUUUUUGGGGAGGGGAAAGUAUUAUGUUACGCCGUUCGGAUCUGCAC	0.702
CACAGACAACACGCACCCACACAGACACAGAGGGAAGGGGUUGGGAUGGGGACAGGGUGCACAGCAUGGCGGGGUAGGACCCCAGCCCCU	1.27
AGUCCUGUGCUACACAUCGUAUGUACCGAAUCGGGGCCCCCGGCCCCCGGCCCCCGGGAAAGUAUUAUGUUACGCCGUUCGGAUCUGCAC	-0.924
GUCCUGUGCUACACAUCGUAUGUACCGAAUCGGCCCCCGGGGCCCCCGGGCCCCCGGGGAAAGUAUUAUGUUACGCCGUUCGGAUCUGCA	-0.899
UCCUGUGCUACACAUCGUAUGUACCGAAUCGGGGUGGGGAAAAAGGGGAAAAAAAGGGGAAAGUAUUAUGUUACGCCGUUCGGAUCUGCA	0.503
CCUGUGCUACACAUCGUAUGUACCGAAUCAAAGUGUGUGUGUGUGAAAUGUGUGUGUGAAAAAAGUAUUAUGUUACGCCGUUCGGAUCUG	-0.548
CCUCAAGUCCUGUGCUACACAUCGUAUGUACCGAAUCGGCGGGCGGGGCGGGGAAAGUAUUAUGUUACGCCGUUCGGAUCUGCACUUCCA	0.461

Sample 2
Target: TAR DNA-binding protein 43, full length, His tag (TARDBP, Homo sapiens, UniProt Q13148, residues 1-414)
Technique: RNA Bind-n-Seq
Form: RNA
Medium: in vitro
Tested at: 20 nM
Notes: 6-mer, flanks averaged, single round
With: 150 mM LiCl
Reference: input library
Reading: higher = stronger binding
Oligonucleotide	6-mer enrichment (R)
UCCUGA	0.846
UCGAGU	0.963
ACCUUU	0.993
GAGACG	0.992
UGUACA	0.914
AUCUCA	0.806
CUUUCC	0.956
CUGAUU	0.869

Further values, each from its own experiment
P1: PafA, mature enzyme, eGFP fusion (Elizabethkingia meningoseptica, UniProt Q9KJX5); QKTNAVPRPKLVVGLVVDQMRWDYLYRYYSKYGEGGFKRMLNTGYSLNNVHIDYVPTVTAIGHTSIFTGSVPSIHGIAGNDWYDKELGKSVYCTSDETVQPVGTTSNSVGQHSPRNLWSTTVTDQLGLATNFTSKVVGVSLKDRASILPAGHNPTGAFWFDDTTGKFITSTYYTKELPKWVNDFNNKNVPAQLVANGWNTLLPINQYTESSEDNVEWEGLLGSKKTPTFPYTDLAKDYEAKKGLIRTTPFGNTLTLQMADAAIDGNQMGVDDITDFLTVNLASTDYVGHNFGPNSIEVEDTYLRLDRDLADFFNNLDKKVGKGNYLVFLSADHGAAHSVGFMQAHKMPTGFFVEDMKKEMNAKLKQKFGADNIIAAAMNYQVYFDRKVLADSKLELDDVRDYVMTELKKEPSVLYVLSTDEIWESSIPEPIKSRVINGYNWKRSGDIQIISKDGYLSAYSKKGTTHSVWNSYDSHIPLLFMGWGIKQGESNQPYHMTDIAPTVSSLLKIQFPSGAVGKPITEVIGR
Substance	target	test	test system	conditions	scale	measurement	value
PhoQ, residues 284 288 289 292 302 303 AGHLVA	PhoP, residues 12 14 15 18 19 VHSCL (Escherichia coli, UniProt P23836)	Sort-seq, item: YFP reporter	E. coli	PhoQ-PhoP variant library, with: 10 µM Mg2+	reference: high Mg2+ state, higher = stronger signaling	fold induction	5.38
P1 T253G	tungstate, free oxyanion	microfluidic competitive inhibition	in vitro, cell-free expressed	not given, derived from inhibition constants, unchanged parent 2230 nM	lower = stronger binding	oxyanion analog dissociation constant	1.96 µM

Repeated from above (sample 1):
Oligonucleotide	log2 enrichment
CCUGUGCUACACAUCGUAUGUACCGAAUCAAAGUGUGUGUGUGUGAAAUGUGUGUGUGAAAAAAGUAUUAUGUUACGCCGUUCGGAUCUG	-0.548
